# Experimental data pooled from the literature.
# Every numbered part comes from another study and shows a few of its results, in no order.
# Chain of UniProt P80192 (whole entry, looked up): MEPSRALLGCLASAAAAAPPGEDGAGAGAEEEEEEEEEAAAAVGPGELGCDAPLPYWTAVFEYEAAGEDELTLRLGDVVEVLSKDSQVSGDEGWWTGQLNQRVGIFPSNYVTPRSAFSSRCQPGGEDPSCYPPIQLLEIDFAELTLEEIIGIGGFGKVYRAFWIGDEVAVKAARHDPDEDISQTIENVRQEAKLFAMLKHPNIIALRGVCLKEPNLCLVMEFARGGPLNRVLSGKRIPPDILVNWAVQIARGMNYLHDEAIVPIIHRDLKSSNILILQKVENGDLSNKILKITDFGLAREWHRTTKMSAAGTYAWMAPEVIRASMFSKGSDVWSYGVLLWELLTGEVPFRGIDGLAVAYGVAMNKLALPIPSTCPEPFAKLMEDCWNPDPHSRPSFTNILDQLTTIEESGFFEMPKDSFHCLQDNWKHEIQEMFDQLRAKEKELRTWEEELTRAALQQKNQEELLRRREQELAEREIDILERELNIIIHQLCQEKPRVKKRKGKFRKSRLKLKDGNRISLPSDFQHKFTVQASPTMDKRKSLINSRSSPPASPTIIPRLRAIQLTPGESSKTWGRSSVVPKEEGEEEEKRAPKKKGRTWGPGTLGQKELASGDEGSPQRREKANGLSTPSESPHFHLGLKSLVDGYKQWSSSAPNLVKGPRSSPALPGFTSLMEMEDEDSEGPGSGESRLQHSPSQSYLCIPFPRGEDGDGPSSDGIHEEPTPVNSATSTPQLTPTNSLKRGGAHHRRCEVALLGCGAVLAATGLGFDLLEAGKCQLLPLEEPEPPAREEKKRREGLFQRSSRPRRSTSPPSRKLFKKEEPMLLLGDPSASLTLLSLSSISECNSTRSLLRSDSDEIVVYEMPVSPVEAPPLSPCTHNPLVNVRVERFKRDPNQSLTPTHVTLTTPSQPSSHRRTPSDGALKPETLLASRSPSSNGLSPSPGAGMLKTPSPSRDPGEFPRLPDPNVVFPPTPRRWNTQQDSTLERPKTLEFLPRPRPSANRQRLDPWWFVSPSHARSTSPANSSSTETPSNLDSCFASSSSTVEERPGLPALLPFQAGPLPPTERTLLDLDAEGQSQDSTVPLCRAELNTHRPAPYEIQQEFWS
# Chain of UniProt P27361 (whole entry, looked up): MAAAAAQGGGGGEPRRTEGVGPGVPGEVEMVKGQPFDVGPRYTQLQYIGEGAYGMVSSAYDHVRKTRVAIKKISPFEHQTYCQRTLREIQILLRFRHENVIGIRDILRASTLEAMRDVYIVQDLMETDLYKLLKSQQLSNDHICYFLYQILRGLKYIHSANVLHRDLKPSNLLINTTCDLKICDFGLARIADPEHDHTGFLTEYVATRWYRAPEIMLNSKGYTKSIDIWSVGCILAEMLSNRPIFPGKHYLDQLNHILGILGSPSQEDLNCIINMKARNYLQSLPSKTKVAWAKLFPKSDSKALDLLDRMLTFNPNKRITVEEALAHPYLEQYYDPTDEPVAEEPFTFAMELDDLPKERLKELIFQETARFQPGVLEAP
# Chain of UniProt O00238 (whole entry, looked up): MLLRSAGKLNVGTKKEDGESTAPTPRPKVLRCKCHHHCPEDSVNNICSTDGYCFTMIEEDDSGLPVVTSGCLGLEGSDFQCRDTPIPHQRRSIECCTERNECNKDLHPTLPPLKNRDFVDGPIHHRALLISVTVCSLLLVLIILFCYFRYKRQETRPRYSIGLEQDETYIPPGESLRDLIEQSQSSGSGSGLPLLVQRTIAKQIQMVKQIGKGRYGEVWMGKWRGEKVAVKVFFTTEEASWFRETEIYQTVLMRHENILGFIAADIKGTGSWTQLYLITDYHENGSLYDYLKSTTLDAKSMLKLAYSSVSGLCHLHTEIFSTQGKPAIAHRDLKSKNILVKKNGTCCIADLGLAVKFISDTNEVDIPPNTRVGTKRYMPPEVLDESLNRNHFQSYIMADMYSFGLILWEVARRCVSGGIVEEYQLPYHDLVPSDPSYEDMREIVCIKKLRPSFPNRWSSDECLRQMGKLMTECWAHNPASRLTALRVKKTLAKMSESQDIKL
# Chain of UniProt Q99640 (whole entry, looked up): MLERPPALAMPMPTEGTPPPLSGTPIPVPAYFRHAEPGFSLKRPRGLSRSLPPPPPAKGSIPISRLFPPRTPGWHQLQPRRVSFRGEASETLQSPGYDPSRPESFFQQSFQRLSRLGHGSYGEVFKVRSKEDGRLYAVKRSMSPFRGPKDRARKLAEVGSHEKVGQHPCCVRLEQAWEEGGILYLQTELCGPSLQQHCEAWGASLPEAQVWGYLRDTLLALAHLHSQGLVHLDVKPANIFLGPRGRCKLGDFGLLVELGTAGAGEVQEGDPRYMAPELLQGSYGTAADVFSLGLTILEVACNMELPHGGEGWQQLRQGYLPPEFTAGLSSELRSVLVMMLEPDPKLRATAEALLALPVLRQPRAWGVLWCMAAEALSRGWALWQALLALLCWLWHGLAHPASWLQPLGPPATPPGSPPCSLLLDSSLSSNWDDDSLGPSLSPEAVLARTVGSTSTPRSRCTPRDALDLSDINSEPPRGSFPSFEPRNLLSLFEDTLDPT
# Chain of UniProt Q9Y4K4 (whole entry, looked up): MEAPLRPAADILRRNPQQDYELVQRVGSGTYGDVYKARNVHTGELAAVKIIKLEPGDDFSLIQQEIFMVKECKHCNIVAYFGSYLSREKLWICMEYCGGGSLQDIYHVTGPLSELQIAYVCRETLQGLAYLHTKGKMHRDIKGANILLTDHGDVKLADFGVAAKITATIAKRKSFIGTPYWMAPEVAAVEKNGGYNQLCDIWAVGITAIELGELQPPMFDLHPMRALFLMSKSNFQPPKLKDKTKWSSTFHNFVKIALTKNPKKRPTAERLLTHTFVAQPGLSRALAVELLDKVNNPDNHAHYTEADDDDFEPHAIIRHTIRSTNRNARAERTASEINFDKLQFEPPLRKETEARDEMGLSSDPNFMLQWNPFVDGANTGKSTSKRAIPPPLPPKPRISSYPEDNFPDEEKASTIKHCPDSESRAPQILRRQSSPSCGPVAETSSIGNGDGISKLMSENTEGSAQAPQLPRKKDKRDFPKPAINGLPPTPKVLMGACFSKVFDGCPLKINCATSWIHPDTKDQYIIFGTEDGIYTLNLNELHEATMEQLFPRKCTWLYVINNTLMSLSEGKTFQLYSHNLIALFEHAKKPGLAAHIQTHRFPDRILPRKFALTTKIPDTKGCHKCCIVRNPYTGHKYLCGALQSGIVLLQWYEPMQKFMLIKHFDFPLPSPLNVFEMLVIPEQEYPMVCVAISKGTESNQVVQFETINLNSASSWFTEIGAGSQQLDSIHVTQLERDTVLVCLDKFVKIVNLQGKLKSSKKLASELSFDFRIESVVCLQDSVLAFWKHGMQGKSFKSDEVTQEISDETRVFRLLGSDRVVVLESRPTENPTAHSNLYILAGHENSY
# Chain of UniProt P09619 (whole entry, looked up): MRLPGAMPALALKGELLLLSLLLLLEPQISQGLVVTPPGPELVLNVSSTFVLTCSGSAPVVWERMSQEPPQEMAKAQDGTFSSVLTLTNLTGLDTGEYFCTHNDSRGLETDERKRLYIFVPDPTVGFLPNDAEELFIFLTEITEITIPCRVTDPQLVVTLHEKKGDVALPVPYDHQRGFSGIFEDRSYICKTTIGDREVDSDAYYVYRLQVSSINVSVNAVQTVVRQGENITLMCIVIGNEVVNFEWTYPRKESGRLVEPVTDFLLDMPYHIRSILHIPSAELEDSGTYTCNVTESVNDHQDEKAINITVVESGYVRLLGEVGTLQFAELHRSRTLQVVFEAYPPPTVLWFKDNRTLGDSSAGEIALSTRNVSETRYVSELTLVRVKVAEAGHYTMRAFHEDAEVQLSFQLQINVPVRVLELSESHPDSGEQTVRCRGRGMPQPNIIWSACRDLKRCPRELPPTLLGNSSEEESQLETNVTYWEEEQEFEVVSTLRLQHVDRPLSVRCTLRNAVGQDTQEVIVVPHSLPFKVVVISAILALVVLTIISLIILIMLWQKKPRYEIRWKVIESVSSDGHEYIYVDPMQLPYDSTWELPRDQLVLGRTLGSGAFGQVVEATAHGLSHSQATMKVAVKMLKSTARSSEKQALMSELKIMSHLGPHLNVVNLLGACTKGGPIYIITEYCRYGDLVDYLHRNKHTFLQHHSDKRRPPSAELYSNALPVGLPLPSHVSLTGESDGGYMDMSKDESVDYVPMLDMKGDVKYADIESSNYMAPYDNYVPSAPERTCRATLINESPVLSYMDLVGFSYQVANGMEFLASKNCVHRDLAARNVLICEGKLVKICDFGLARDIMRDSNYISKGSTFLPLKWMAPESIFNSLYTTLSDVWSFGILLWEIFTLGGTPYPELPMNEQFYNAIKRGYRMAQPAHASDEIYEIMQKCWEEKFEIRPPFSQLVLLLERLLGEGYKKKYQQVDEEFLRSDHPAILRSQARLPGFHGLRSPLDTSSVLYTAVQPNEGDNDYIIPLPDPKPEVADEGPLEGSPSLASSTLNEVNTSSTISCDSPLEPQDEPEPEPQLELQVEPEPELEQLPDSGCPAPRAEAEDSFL

# Series 1
# Target: Calcium/calmodulin-dependent protein kinase type II subunit alpha (CAMK2A, Homo sapiens, UniProt Q9UQM7)
# Chain of UniProt Q9UQM7 (whole entry, looked up): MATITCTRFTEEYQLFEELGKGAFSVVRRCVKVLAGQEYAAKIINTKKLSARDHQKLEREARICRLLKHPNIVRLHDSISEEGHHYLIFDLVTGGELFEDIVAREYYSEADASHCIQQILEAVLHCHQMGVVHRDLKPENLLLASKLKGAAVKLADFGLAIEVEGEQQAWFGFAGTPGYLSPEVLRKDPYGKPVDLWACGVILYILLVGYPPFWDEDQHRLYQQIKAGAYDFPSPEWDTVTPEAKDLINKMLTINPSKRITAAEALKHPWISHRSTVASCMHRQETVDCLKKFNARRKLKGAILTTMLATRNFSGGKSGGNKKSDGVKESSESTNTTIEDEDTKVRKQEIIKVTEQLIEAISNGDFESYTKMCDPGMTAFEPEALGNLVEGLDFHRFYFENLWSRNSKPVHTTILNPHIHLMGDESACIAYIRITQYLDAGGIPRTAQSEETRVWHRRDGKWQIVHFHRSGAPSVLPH
# Observed: enzyme activity
# Mode: inhibitor
# Concentration: 10 µM
Compound,inhibition
N#CS,7%
C[C@H](CC(=O)C[C@](C)(O)[C@@H]1CC(=O)[C@@]2(C)C3=C(C(=O)C[C@]12C)[C@@]1(C)CC[C@H](O)C(C)(C)[C@@H]1C[C@@H]3O)C(=O)O,-26%
O=P(O)(O)OC[C@H](O)CO,6%
CC(C)=C[C@H]1C[C@](C)(O)[C@@H]2[C@H]3CC[C@@H]4[C@@]5(C)CC[C@H](O[C@@H]6OC[C@H](O)[C@H](O[C@@H]7O[C@H](CO[C@@H]8O[C@H](CO)[C@@H](O)[C@H](O)[C@H]8O)[C@@H](O)[C@H](O)[C@H]7O[C@@H]7OC[C@@H](O)[C@H](O)[C@H]7O)[C@H]6O[C@@H]6O[C@@H](C)[C@H](O)[C@@H](O)[C@H]6O)C(C)(C)[C@@H]5CC[C@@]4(C)[C@@]34CO[C@@]2(C4)O1,-14%
C[C@H](CCC(=O)O)[C@H]1CC[C@H]2[C@@H]3[C@@H](O)C[C@@H]4C[C@H](O)CC[C@]4(C)[C@H]3C[C@H](O)[C@]12C,-31%
CC(C)NC(=O)COc1cccc(-c2nc(Nc3ccc4[nH]ncc4c3)c3ccccc3n2)c1,-12%
OC[C@H]1O[C@@H](Oc2cc(O)cc(/C=C/c3ccc(O)cc3)c2)[C@H](O)[C@@H](O)[C@@H]1O,-5%
Cc1onc(-c2ccccc2)c1C(=O)N[C@@H]1C(=O)N2[C@@H]1SC(C)(C)[C@@H]2C(=O)O,8%
CC(=O)OCCc1ccc(O)c(O)c1,-31%
COc1ccc(-c2cc(=O)c3c(O)c(OC)c(OC)cc3o2)cc1OC,1%
COC(=O)CC(O)(CC(=O)O)C(=O)OC (centres unmarked),-19%
CC1CCCCCCCCCCCCC(=O)C1 (centres unmarked),-13%
C=CC1=C(C(=O)O)N2C(=O)[C@@H](NC(=O)/C(=N\OCC(=O)O)c3csc(N)n3)[C@H]2SC1,-1%
Nc1ccccc1NC(=O)c1ccc(CNc2nccc(-c3cccnc3)n2)cc1,2%
CC1(C)[C@@H](O)CC[C@]2(C)[C@H]3C(=O)C=C4[C@H]5C[C@@](C)(C(=O)O)CC[C@]5(C)CC[C@@]4(C)[C@]3(C)CC[C@@H]12,4%
Cn1cc(C(=O)O)ccc1=O,-26%
c1ccc(CC2=NCCN2)cc1,-7%
NC(N)=N[C@@H](CC(=O)O)C(=O)O,-5%
CNCc1ccccc1,-9%
COc1ccc(CN2CCN(C(c3ccc(F)cc3)c3ccc(F)cc3)CC2)c(OC)c1OC,-5%
CC[C@@H]([C@H](C)O)n1ncn(-c2ccc(N3CCN(c4ccc(OC[C@@H]5CO[C@@](Cn6cncn6)(c6ccc(F)cc6F)C5)cc4)CC3)cc2)c1=O,-6%
CCCS(=O)(=O)Nc1ccc(F)c(C(=O)c2c[nH]c3ncc(-c4ccc(Cl)cc4)cc23)c1F,-5%

# Series 2
# SMILES: O=C1NC(=O)c2c1c1c3ccccc3[nH]c1c1[nH]c3cc(Br)ccc3c21
# Observed: enzyme activity
# Mode: inhibitor
# Concentration: 0.5 µM
# Baseline: control
target,remaining activity
"MAP3K9 (Homo sapiens, UniProt P80192)",7.57%
"HCK (Homo sapiens, UniProt P08631)",92.4%
"PHKG2 (Homo sapiens, UniProt P15735)",94.8%
"FGFR2 (Homo sapiens, UniProt P21802)",98.4%
"ACVR1 (Homo sapiens, UniProt Q04771)",127%
"RIPK2 (Homo sapiens, UniProt O43353)",99.6%
"VRK1 (Homo sapiens, UniProt Q99986)",92.3%
"MAP4K5 (Homo sapiens, UniProt Q9Y4K4)",42.3%
"RAF1 (Homo sapiens, UniProt P04049)",97.8%
"INSRR (Homo sapiens, UniProt P14616)",85.8%
"TAOK1 (Homo sapiens, UniProt Q7L7X3)",68.4%
"DYRK2 (Homo sapiens, UniProt Q92630)",70.5%
"PDGFRB (Homo sapiens, UniProt P09619)",82.6%
"PLK1 (Homo sapiens, UniProt P53350)",91.2%
"ULK1 (Homo sapiens, UniProt O75385)",99.2%
"PRKD3 (Homo sapiens, UniProt O94806)",49.5%
"TNK2 (Homo sapiens, UniProt Q07912)",97.4%
"DSTYK (Homo sapiens, UniProt Q6XUX3)",65.6%
"SGK3 (Homo sapiens, UniProt Q96BR1)",97.2%
"NTRK2 (Homo sapiens, UniProt Q16620)",68.1%

# Series 3
# Target: Bromodomain-containing protein 4, BD1 (BRD4, Homo sapiens, UniProt O60885)
# Observed: acetyl-histone H4 peptide binding
# Method: AlphaScreen displacement
# Concentration: 50 µM
Compound,inhibition
NC(=O)NC(=O)CSc1nc2ccccc2c(=O)n1-c1ccccc1F,9.35%
N=C(N)NCCNS(=O)(=O)c1cccc2cnccc12,10.3%
N#CC(=C(N)Sc1ccccc1N)C(C#N)=C(N)Sc1ccccc1N,14.6%
CCOC(=O)c1cnc2cc(OCCOC(C)C)c(OCCOC(C)C)cc2c1O,5.55%
COc1cc2ncnc(Nc3cccc(O)c3)c2cc1OC.Cl,13.5%
O=C1Nc2ccc(Br)cc2C1=NNC(=S)NCC1CCCO1 (centres unmarked),13.1%
Cc1c(C(=O)Nc2ccccc2)sc2nc[nH]c(=O)c12,5.7%
O=c1[nH]cnc2cccc(Cl)c12,4.25%
Fc1ccc(Nc2ncc3c(n2)CCNC3)cc1,13.8%
O=C1NC(=O)C(=Cc2ccc3nccnc3c2)S1,27%
N#CC(=Cc1ccncc1)c1nc(-c2ccccc2)cs1,23.2%
c1ccc(-c2cnc(Nc3ccc(OCCN4CCCC4)cc3)s2)cc1,68.2%
COc1ccc(CNc2nc(N(CCO)CCO)nc3c2ncn3C(C)C)cc1,18.5%
O=C1Nc2ccccc2C1=C1Nc2ccccc2C1=NO,93.5%
O=C(NCC(F)(F)F)c1n[nH]c2ccccc12,6.15%

# Series 4
# Compound: C[C@H](c1ccnc(Nc2nc3ccc(-c4cc(N(C)C)ncn4)cc3[nH]2)c1)N1CCN(C(=O)CC(F)(F)F)CC1
# Method: competition with immobilised ligand
# Concentration: 0.1 µM
target,observed,remaining binding [%]
"PIKFYVE (Homo sapiens, UniProt Q9Y2I7)",cell-free assay,100
"Tyrosine-protein kinase ABL1, phosphorylated (ABL1, Homo sapiens, UniProt P00519)",cell-free assay,85
"CSNK1A1 (Homo sapiens, UniProt P48729)",cell-free assay,100
"BMPR1B (Homo sapiens, UniProt O00238)",cell-free assay,86
"Ribosomal protein S6 kinase alpha-1, C-terminal kinase domain (RPS6KA1, Homo sapiens, UniProt Q15418)",cell-free assay,82
"PRKD2 (Homo sapiens, UniProt Q9BZL6)",cell-free assay,100
"MAP3K2 (Homo sapiens, UniProt Q9Y2U5)",cell-free assay,100
"MAPK3 (Homo sapiens, UniProt P27361)",cell-free assay,89
"Tyrosine-protein kinase ABL1, phosphorylated (ABL1, Homo sapiens, UniProt P00519, Y253F)",cell-free assay,91
"Tyrosine-protein kinase ABL1, non-phosphorylated (ABL1, Homo sapiens, UniProt P00519, Q252H)",cell-free assay,94
"STK39 (Homo sapiens, UniProt Q9UEW8)",cell-free assay,100
"ACVRL1 (Homo sapiens, UniProt P37023)",binding,100
"TLK2 (Homo sapiens, UniProt Q86UE8)",cell-free assay,99
"ABL2 (Homo sapiens, UniProt P42684)",cell-free assay,100
"PRKG1 (Homo sapiens, UniProt Q13976)",cell-free assay,100
"ACVR2B (Homo sapiens, UniProt Q13705)",binding,81
"MAP2K5 (Homo sapiens, UniProt Q13163)",binding,8.5
"FGR (Homo sapiens, UniProt P09769)",cell-free assay,85
"MAP3K6 (Homo sapiens, UniProt O95382)",cell-free assay,100
"MET (Homo sapiens, UniProt P08581, M1250T)",cell-free assay,93
"PKMYT1 (Homo sapiens, UniProt Q99640)",cell-free assay,83
"FLT3 (Homo sapiens, UniProt P36888, D835V/ITD)",cell-free assay,64
"PIK3CA (Homo sapiens, UniProt P42336, C420R)",cell-free assay,100

# For quick reference, copied from above (series 4):
target,observed,remaining binding [%]
"Tyrosine-protein kinase ABL1, non-phosphorylated (ABL1, Homo sapiens, UniProt P00519, Q252H)",cell-free assay,94
"STK39 (Homo sapiens, UniProt Q9UEW8)",cell-free assay,100
"ACVRL1 (Homo sapiens, UniProt P37023)",binding,100
"TLK2 (Homo sapiens, UniProt Q86UE8)",cell-free assay,99
"ABL2 (Homo sapiens, UniProt P42684)",cell-free assay,100
"PRKG1 (Homo sapiens, UniProt Q13976)",cell-free assay,100
"ACVR2B (Homo sapiens, UniProt Q13705)",binding,81
"MAP2K5 (Homo sapiens, UniProt Q13163)",binding,8.5
"FGR (Homo sapiens, UniProt P09769)",cell-free assay,85
"MAP3K6 (Homo sapiens, UniProt O95382)",cell-free assay,100
"MET (Homo sapiens, UniProt P08581, M1250T)",cell-free assay,93
"PKMYT1 (Homo sapiens, UniProt Q99640)",cell-free assay,83
"FLT3 (Homo sapiens, UniProt P36888, D835V/ITD)",cell-free assay,64
